Experimental data pooled from the literature.
Lines come from different studies, so protocols differ.
Sequence of UniProt O75116 (whole entry, looked up): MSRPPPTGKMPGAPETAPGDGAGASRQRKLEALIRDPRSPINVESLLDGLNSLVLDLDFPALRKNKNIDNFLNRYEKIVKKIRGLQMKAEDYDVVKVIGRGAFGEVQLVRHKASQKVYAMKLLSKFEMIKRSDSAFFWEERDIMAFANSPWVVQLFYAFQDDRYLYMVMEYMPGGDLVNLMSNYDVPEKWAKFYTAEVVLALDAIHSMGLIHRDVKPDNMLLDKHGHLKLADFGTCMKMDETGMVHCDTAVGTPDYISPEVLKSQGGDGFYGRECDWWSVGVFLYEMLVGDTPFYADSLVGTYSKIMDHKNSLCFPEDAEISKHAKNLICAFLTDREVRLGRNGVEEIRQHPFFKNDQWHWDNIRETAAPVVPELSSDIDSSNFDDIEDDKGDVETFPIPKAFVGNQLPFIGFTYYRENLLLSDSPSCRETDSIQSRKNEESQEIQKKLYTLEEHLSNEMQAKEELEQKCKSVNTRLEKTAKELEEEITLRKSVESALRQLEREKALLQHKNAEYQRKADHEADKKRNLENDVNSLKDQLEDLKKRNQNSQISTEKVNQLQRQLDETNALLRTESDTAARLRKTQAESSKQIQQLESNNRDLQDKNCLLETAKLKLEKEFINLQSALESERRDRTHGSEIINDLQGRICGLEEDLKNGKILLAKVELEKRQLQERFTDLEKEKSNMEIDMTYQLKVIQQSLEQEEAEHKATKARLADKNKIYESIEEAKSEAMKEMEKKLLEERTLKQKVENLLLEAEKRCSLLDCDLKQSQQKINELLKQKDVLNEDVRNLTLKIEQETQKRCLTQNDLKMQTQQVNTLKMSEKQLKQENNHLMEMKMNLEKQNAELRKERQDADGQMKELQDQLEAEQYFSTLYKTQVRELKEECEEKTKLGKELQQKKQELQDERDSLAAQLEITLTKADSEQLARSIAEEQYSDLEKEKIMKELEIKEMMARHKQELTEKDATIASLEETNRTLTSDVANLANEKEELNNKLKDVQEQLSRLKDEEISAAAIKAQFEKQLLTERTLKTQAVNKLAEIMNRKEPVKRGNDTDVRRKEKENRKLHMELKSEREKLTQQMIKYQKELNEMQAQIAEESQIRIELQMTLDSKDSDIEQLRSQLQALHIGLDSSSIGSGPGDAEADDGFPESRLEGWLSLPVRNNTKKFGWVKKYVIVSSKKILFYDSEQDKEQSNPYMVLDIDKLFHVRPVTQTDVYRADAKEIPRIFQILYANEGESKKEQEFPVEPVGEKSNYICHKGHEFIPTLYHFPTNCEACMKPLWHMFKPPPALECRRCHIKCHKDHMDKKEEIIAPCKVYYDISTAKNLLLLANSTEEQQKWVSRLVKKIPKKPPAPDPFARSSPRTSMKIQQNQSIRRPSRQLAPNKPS
Sequence of UniProt P16591 (whole entry, looked up): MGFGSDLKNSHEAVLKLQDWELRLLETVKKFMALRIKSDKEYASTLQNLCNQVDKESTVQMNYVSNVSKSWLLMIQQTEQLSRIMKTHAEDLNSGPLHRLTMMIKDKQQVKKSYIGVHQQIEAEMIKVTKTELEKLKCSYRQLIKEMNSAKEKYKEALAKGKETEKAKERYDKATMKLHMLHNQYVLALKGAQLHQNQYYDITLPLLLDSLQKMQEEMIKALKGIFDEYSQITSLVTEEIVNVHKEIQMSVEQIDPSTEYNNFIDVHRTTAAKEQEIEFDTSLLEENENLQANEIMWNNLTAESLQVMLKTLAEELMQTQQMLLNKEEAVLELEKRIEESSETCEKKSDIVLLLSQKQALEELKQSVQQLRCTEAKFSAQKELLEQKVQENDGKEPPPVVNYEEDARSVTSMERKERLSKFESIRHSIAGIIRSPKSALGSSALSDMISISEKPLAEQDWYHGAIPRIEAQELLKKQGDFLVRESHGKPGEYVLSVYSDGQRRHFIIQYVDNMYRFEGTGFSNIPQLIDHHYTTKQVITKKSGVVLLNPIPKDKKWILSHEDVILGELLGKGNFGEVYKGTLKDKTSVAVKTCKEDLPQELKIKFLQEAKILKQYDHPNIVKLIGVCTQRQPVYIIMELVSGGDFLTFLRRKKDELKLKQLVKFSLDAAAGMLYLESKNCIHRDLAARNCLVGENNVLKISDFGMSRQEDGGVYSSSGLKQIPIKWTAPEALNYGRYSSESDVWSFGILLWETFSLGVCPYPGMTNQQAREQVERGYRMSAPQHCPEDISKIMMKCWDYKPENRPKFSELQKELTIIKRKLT
Sequence of UniProt O96017 (whole entry, looked up): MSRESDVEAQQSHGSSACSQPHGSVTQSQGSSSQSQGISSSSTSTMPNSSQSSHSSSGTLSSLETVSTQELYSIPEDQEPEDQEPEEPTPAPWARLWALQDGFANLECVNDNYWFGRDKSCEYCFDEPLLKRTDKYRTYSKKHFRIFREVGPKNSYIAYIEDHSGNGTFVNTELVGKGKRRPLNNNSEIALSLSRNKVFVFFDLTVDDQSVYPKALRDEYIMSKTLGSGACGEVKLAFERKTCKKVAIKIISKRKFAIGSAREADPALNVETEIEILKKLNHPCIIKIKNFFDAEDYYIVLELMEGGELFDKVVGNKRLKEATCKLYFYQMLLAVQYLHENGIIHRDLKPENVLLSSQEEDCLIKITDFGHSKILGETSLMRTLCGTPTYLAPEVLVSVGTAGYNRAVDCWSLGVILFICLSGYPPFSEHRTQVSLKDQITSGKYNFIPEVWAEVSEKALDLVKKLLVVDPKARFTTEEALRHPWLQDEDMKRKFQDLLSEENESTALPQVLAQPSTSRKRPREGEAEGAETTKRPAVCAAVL

SMILES | target or system | test | test system | setting | quantity | result
COc1cc(-c2cncc3c2CN(C)Cc2cc(N4CCNCC4)ccc2-3)cc(OC)c1OC | Serine/threonine-protein kinase Chk2 (CHEK2, Homo sapiens, UniProt O96017) | enzyme activity, inhibitor | – | 1 µM | remaining activity | 111%
C=CCn1c(=O)c2cnc(Nc3ccc(N4CCN(C)CC4)cc3)nc2n1-c1ccc2c(n1)[C@@](O)(CC)CC2 | – | metabolic stability | dog, hepatocytes | – | half-life | 7.43 h
C=CC(=O)N1CCC(COCC(=O)N2CCN(c3nc(-c4cnc(N)nc4C(F)F)nc(N4CCOC[C@@H]4C)n3)CC2)CC1 | Rho-associated protein kinase 2 (ROCK2, Homo sapiens, UniProt O75116) | binding, competition with immobilised ligand | – | 1 µM | remaining binding | 96%
CC(=O)N(C)[C@H]1CCN(C(=O)c2cnc3c(c2)C[C@](C)(c2ccc(F)cc2)N3)C1 | – | – | male human, plasma | oral, 15 mg, multiple doses, once daily, steady state | half-life | 24.3 h
COc1ccc2c(c1)CN(C(=O)CCN1CCC(Cc3ccccc3)CC1)CC[S@@+]2[O-] | – | – | male human, plasma | intravenous, 0.05 mg/kg, single dose, healthy volunteers | half-life | 5.31 h
O=c1ccc2ccc(O)cc2o1 | – | metabolic stability | monkey, liver microsomes | – | half-life | 0.0408 h
O=C(COc1ccc(Cl)cc1)NC12CC(c3nnc([C@H]4C[C@@H](OC(F)(F)F)C4)o3)(C1)C2 | – | – | human, plasma | oral, 260 mg, multiple doses, once daily, healthy volunteers | half-life | 39.3 h
CNc1ncc2c(/C=C/C(=O)N3CCC(OC)CC3)nn(Cc3cccc(C(F)(F)F)c3)c2n1 | Tyrosine-protein kinase Fer (FER, Homo sapiens, UniProt P16591) | enzyme activity, inhibitor, radiometric | – | 1 µM | remaining activity | 84%
O=C1CC[C@H](N2Cc3cc(N4CCN(CC5CCN(c6ccc([C@@H]7c8ccc(O)cc8CC[C@@H]7c7ccccc7)cc6)CC5)CC4)ccc3C2=O)C(=O)N1 | – | – | male Sprague-Dawley rat, plasma | oral, 20 mg/kg, fasted | half-life | 2.86 h
NS(=O)(=O)OC[C@@H]1C[C@@H](n2ccc3c(N[C@H]4CCc5ccccc54)ncnc32)C[C@@H]1O | – | – | human, plasma | intravenous, 25 mg/m², patients | half-life | 5.2 h
O=C(c1ccc(F)cc1)C1CCN(CCn2c(=O)[nH]c3ccccc3c2=O)CC1 | – | metabolic stability | monkey, liver microsomes | – | half-life | 0.46 h

Repeated from above:
SMILES | target or system | test | test system | setting | quantity | result
CC(=O)N(C)[C@H]1CCN(C(=O)c2cnc3c(c2)C[C@](C)(c2ccc(F)cc2)N3)C1 | – | – | male human, plasma | oral, 15 mg, multiple doses, once daily, steady state | half-life | 24.3 h
